Measurements from different studies.
Protocols differ between the studies behind these lines.
Effect on: enzyme activity
Mode: inhibitor
AMY2: Pancreatic alpha-amylase (AMY2, Sus scrofa, UniProt P00690)
UniProt P00690, sequence (whole entry, looked up): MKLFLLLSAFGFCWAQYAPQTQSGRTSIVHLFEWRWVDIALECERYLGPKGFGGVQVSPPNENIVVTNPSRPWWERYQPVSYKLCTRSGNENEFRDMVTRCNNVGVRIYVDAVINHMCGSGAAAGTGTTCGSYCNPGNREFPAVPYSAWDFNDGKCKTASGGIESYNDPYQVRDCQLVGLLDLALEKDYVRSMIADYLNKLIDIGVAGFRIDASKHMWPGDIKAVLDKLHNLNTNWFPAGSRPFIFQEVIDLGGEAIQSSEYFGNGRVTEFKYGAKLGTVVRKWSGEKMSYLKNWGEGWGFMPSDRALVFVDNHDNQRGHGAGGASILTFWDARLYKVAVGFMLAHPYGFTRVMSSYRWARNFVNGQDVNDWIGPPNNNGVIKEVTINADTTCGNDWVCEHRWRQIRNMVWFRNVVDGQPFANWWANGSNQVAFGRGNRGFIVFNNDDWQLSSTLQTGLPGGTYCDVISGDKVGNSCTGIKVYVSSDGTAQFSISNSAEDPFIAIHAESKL
rep papain-like protease: Replicase polyprotein 1ab, papain-like protease (rep, Porcine epidemic diarrhea virus, UniProt P0C6Y4)
UniProt P27361, sequence (whole entry, looked up): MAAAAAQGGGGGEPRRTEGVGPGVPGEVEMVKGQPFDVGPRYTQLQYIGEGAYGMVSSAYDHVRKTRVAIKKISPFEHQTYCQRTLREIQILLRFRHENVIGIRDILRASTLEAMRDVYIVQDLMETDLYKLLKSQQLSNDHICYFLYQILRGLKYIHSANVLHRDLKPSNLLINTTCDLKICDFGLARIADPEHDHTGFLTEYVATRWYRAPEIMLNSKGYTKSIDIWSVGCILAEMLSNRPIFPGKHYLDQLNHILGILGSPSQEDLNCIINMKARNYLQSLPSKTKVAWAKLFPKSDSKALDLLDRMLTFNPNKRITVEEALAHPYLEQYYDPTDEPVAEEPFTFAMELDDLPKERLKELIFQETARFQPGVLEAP
UniProt P54753, sequence (whole entry, looked up): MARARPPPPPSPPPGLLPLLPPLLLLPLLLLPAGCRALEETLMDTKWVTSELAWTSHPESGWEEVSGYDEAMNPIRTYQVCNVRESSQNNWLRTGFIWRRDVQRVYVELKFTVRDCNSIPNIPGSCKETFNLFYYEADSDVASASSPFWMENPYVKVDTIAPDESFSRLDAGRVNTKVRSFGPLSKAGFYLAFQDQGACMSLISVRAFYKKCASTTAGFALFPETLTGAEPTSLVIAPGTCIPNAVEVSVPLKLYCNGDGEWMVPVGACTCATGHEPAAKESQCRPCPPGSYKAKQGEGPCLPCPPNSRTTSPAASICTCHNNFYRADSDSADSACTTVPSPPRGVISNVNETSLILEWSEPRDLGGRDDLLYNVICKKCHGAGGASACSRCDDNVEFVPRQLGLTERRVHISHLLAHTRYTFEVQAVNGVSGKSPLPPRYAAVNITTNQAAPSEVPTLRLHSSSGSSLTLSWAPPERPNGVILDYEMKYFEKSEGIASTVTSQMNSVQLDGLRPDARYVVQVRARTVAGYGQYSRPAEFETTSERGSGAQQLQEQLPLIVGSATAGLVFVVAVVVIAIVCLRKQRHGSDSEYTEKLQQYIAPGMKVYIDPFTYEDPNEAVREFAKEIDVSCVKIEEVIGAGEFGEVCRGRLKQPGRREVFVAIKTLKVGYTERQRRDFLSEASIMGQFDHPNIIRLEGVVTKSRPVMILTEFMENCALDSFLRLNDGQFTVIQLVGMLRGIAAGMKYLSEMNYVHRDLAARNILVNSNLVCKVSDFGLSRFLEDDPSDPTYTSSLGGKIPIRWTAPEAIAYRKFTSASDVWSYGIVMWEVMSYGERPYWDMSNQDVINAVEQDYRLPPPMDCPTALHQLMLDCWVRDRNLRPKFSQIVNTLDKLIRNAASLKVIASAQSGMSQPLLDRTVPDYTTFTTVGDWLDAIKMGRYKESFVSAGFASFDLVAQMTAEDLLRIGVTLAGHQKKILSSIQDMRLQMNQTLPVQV
UniProt P05164, sequence (whole entry, looked up): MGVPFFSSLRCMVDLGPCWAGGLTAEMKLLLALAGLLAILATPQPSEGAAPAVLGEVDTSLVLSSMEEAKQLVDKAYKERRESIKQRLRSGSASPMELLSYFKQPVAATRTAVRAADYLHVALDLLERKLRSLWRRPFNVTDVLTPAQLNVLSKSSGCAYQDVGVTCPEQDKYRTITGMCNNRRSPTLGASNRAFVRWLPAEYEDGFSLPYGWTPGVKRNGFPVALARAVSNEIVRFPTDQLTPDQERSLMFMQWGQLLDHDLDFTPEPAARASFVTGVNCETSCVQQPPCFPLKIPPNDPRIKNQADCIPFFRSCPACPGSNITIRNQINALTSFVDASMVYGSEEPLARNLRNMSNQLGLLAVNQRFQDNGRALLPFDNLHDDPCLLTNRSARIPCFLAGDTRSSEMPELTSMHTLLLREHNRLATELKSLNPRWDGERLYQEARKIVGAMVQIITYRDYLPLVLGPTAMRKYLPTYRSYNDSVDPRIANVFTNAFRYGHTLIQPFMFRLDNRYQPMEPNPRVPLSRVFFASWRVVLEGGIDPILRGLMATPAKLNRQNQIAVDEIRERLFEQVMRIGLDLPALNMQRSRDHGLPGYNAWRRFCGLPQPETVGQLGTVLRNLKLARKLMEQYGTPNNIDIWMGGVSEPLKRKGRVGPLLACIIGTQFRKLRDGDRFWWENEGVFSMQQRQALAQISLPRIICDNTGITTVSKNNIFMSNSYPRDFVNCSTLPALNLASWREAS

| SMILES | target | test | setting | inhibition [%] |
| --- | --- | --- | --- | --- |
| CCN(O)N=Nc1ccc(S(=O)(=O)Nc2cc(C)on2)cc1 | AMY2 | – | 240 µg/mL | 63.2 |
| COc1cc(CNC(=O)CC(c2ccc(Cl)cc2)C(C)C)cc(Br)c1OC (stereo not drawn) | rep papain-like protease | FRET | 10 µM | 10.7 |
| CN1CC(Oc2cnc(C#N)cc2-c2ccn3nc(NC(=O)C4CC4)cc3c2)C1 | EPHB3 (Homo sapiens, UniProt P54753) | – | 1 µM | -1 |
| CCCN(O)N=Nc1ccc(S(=O)(=O)Nc2onc(C)c2C)cc1 | AMY2 | – | 300 µg/mL | 73.7 |
| COc1cc(CNC(=O)c2ccccc2)cc(Br)c1OC | rep papain-like protease | FRET | 10 µM | 15.2 |
| CC[C@H](C)[C@H](NC(=O)[C@H](CCC(N)=O)NC(=O)[C@@H](NC(=O)[C@H](CCSC)NC(=O)[C@H](CCCCN)NC(=O)[C@H](CO)NC(=O)[C@@H](NC(=O)[C@H](CCSC)NC(=O)[C@H](CC(C)C)NC(=O)[C@H](CC(N)=O)NC(=O)[C@@H](NC(=O)[C@@H](NC(=O)[C@H](CO)NC(=O)[C@H](CC(C)C)NC(=O)[C@H](C)NC(=O)[C@H](CCCNC(=N)N)NC(=O)[C@H](CCC(=O)O)NC(=O)[C@H](Cc1ccc(O)cc1)NC(=O)[C@H](Cc1ccccc1)NC(=O)[C@H](C)NC(=O)[C@H](CC(N)=O)NC(=O)[C@@H](N)CCCCN)[C@@H](C)CC)[C@@H](C)CC)[C@@H](C)O)C(C)C)C(=O)N[C@@H](CC(N)=O)C(=O)N[C@H](C(=O)O)C(C)C | MAPK3 (Homo sapiens, UniProt P27361) | radiometric | 50 µM | 2 |
| Cc1cccc(N(O)N=Nc2ccc(S(=O)(=O)Nc3cc(C)on3)cc2)c1 | AMY2 | – | 60 µg/mL | 21.1 |
| COc1ccc(C(=O)NCc2cc(O)c(O)c(Br)c2)cc1 | Replicase polyprotein 1ab, main protease (rep, Porcine epidemic diarrhea virus, UniProt P0C6Y4) | FRET | 10 µM | 105 |
| NC/C(=C\F)COc1cccc(Cn2c(=S)[nH]c(=O)c3[nH]cnc32)c1 | Myeloperoxidase (MPO, Homo sapiens, UniProt P05164) | fluorescence | 30 µM | 99.8 |

For quick reference, copied from above:
| SMILES | target | test | setting | inhibition [%] |
| --- | --- | --- | --- | --- |
| CCN(O)N=Nc1ccc(S(=O)(=O)Nc2cc(C)on2)cc1 | AMY2 | – | 240 µg/mL | 63.2 |
